Measurements from different studies.
Protocols differ between the studies behind these lines. ± gives the spread as reported. Converted amounts (≈) assume the structure as drawn.

SMILES | cell line | test | setting | measurement | result
O=C(O)C1OC(Oc2c(-c3ccccc3)oc3ccc(O)cc3c2=O)C(O)C(O)C1O (stereo not drawn) | HeLa-UGT1A9 cells | refers to: 3-O-glucuronide | 0.3125 µM aglycone loading, end of excretion | intracellular glucuronide concentration | 53.2 ± 5.63 µM
Cc1cc(O)cc(O)c1C(=O)c1c2c3c(c(O)cc(C)c3oc1=O)C(=O)c1c(O)cc(O)cc1-2 | Caco-2 monolayer | – | 50 to 400 µM, 180 min, pH 7.4, apical to basolateral | Papp | 0.58 to 2.91 ×10⁻⁶ cm/s
CC1(C)CCC23COC4(C=CC5C6(C)CCC(O)C(C)(CO)C6CCC5(C)C4(C)CC2O)C3C1 (stereo not drawn) | Caco-2 monolayer | – | 10 µM, 3 h, 37 °C, basolateral to apical | recovery | 85.5%
O=C(O)C1OC(Oc2ccc(-c3cc(=O)c4ccccc4o3)cc2)C(O)C(O)C1O (stereo not drawn) | HeLa-UGT1A9 cells | – | 15 µM aglycone loading, end of excretion | intracellular glucuronide concentration | 146 ± 34.8 µM
CC(=O)N[C@@H](CC(C)C)C(=O)N[C@H](C(=O)N[C@@H](Cc1ccccc1)C(=O)N[C@@H]1CSCc2ccc(cn2)-c2ccc(nc2)CSC[C@@H](C(=O)N[C@@H](CO)C(N)=O)NC(=O)[C@H](CC(C)C)NC(=O)[C@H](CCCNC(=N)N)NC(=O)[C@H](C)NC(=O)[C@H](Cc2c[nH]c3ccccc23)NC(=O)[C@H](Cc2ccc(O)cc2)NC(=O)[C@H](CCCNC(=N)N)NC1=O)[C@@H](C)O | HeLa | CellTiter-Glo | 10 µM | viability decrease | 30%
COc1cc2c(cc1O)[C@]1(O)C(=O)c3c(O)cc4c(c3O[C@@H]1CO2)C=CC(C)(C)O4 | SW480 | cell growth or viability, MTT | 6.25 µg/mL | viability | 124%
Cc1c(C)c(C)[c-](C)c1C.O=C1c2cccc[n+]2[Ir]([Cl])[N]1c1ccccc1 | NIH3T3 | ICP-MS | 10 µM, 24 h | cellular iridium uptake | 46 ng/10⁶ cells
CC(=O)[O-].Nc1ccc(C([O-])=NN=Cc2ccc(OCC(=O)Nc3ccc(Cl)cc3)cc2)cc1.O.O.O.[Cu+2] | HeLa | cytotoxicity, MTT | 24 h | IC50 | 31.4 ± 2.6 µg/mL
CCCCn1cc(C(=O)O)c(=O)c2cc(F)c3[nH]nnc3c21 | HT-29 | cell growth, SRB | 72 h | IC50 | 120 ± 14.1 µg/mL (≈ 396 µM)
CC(=O)N[C@H](C(=O)N[C@H](C(=O)N[C@@H](CCCNC(=N)N)C(=O)N1Cc2ccccc2C[C@H]1C(=O)N[C@@H](Cc1ccccc1)C(N)=O)C1CCCCC1)C(C)C | human PBMC | Bio-Plex multiplex, refers to: TNF-a | 250 µg/mL, 24 h | cytokine level | 12.5 ± 15.3 pg/mL
CC1(C)CCC2(CO)C(=C3C=CC4[C@@]5(C)CCC(O)[C@@](C)(CO)C5CC[C@@]4(C)[C@]3(C)C[C@H]2O)C1 (stereo partly drawn) | Caco-2 monolayer | Caco-2 bidirectional transport | 10 µM, 3 h, 37 °C | recovery basolateral to apical | 86.4%
CCC(=O)N(C)c1ccc(Cl)c(Cl)c1 | CHO-WBL | – | 0.13 mg/mL, 3 h, with S9 activation | cells with multiple aberrations | 0%
Cc1c(NC(=O)c2cccn(-c3ccc(F)cc3)c2=O)ccc(Oc2ccnc(NC(=O)C3CC3)c2)c1C | L929 | western blot | 3 h, 10% FBS | lowest concentration with caspase cleavage | > 50 µM
Cc1nc([C@@H](NC(=O)c2ccc(-c3ccc(Cl)cc3)[nH]2)[C@H]2CCCCN2)sc1CO | U87/CD4/CCR5 | cell growth or viability, XTT | – | CC50 | ~30 µM
COc1cccc2c1C(=O)c1c(O)c3c(c(O)c1C2=O)CC(O)(C(=O)CO)CC3OC1CC(NC(=O)C[C@H](N)C(=O)O)C(O)C(C)O1 (stereo partly drawn) | HepG2 (LAT1-positive) | HPLC | 20 µg/mL, 2 h, serum-free medium | cellular uptake | 1.45 ± 0.046 µg/mL
CC(C)C[C@H](NC(=O)[C@H](CCCNC(=N)N)NC(=O)[C@H](CCCNC(=N)N)NC(=O)[C@H](CCCCN)NC(=O)[C@@H](NC(=O)[C@@H]1CCCN1)C(C)C)C(=O)N[C@@H](Cc1ccccc1)C(=O)NCC(N)=O | U2OS | CellTiter-Glo | up to 50 µM, 24 h | cytotoxicity | not toxic
O=C1CCc2ccc(NS(=O)(=O)c3cccc(Oc4ccccc4)c3)cc2N1 | HMC3 | – | up to 1 µM | cytotoxicity | not toxic
Cc1ccc(C2=C3C=CC4=[N+]3[Ir-3]35([c]6n(C)cc[n+]6C)([c]6n(C)cc[n+]6C)[n]6c2ccc6C(c2ccc(C)cc2)=C2C=CC(=[N+]23)C(c2ccc(C)cc2)=c2ccc([n]25)=C4c2ccc(C)cc2)cc1.O=S(=O)([O-])C(F)(F)F | NCI-H460 | ICP-MS | 1 µM, 2 h | cellular uptake | 148 ± 6.4 µg iridium/g protein

A few entries again:
SMILES | cell line | test | setting | measurement | result
Cc1cc(O)cc(O)c1C(=O)c1c2c3c(c(O)cc(C)c3oc1=O)C(=O)c1c(O)cc(O)cc1-2 | Caco-2 monolayer | – | 50 to 400 µM, 180 min, pH 7.4, apical to basolateral | Papp | 0.58 to 2.91 ×10⁻⁶ cm/s
Cc1ccc(C2=C3C=CC4=[N+]3[Ir-3]35([c]6n(C)cc[n+]6C)([c]6n(C)cc[n+]6C)[n]6c2ccc6C(c2ccc(C)cc2)=C2C=CC(=[N+]23)C(c2ccc(C)cc2)=c2ccc([n]25)=C4c2ccc(C)cc2)cc1.O=S(=O)([O-])C(F)(F)F | NCI-H460 | ICP-MS | 1 µM, 2 h | cellular uptake | 148 ± 6.4 µg iridium/g protein
CC(=O)N[C@H](C(=O)N[C@H](C(=O)N[C@@H](CCCNC(=N)N)C(=O)N1Cc2ccccc2C[C@H]1C(=O)N[C@@H](Cc1ccccc1)C(N)=O)C1CCCCC1)C(C)C | human PBMC | Bio-Plex multiplex, refers to: TNF-a | 250 µg/mL, 24 h | cytokine level | 12.5 ± 15.3 pg/mL
